Assay results collected from several papers.
Every numbered part comes from another study and shows a few of its results, in no order. Substitutions count along the parent as printed.

Set 1 — method: RNA Bind-n-Seq; molecule type: RNA; medium: in vitro; tested at: 1 µM; notes: whole 134-nt RNA, ends assumed; together with: 150 mM KCl; relative to: input library; reading: higher = stronger binding; measurement: log2 enrichment
Target: Ras GTPase-activating protein-binding protein 1, C-terminal RGG region (G3BP1, Homo sapiens, UniProt Q13283)
Chain of UniProt Q13283 (whole entry, looked up): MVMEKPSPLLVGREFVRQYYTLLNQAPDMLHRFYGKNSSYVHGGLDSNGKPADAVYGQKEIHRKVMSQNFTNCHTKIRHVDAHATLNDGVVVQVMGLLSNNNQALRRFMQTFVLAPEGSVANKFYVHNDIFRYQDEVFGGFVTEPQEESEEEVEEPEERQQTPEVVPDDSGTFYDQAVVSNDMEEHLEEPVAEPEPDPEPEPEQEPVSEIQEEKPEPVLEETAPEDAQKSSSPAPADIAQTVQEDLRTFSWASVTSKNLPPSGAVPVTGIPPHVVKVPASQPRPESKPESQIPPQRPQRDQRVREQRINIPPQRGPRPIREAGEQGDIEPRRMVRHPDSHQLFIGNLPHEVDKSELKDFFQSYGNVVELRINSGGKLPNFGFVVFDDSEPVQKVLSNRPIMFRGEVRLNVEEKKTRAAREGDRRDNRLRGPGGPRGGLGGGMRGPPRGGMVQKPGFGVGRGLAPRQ
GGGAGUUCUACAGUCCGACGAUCUGUGAACUUGUAUGUGAAGAAUCUGGACGACUCCAUUGAUGACGACAAACUGAGGAAAGAGUUCUCUCCCUAUGGAGUAAUUACCAGUGCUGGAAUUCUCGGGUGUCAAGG: -0.39
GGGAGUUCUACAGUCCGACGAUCAAGUCCUGUGCUACACAUCGUAUGUACCGAAUCGGGUUUUGGUUUUGGGUUUUGGGAAAGUAUUAUGUUACGCCGUUCGGAUCUGCACUUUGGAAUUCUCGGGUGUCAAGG: -1.29
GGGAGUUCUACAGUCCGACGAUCCCUGUGCUACACAUCGUAUGUACCGAAUCGGAAAAAAGGGGAAAAAAGGGAAAAAAGGGGAAAGUAUUAUGUUACGCCGUUCGGAUCUGCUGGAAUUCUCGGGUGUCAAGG: -1.43
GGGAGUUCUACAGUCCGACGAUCCUGUGCUACACAUCGUAUGUACCGAAUCGGGGAAAAAAGGGAAAAAAGGGGAAAAAAGGGGAAAGUAUUAUGUUACGCCGUUCGGAUCUGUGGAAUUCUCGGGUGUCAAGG: -0.922
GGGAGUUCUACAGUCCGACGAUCUCCUGUGCUACACAUCGUAUGUACCGAAUCGGGGUGGGGAAAAAGGGGAAAAAAAGGGGAAAGUAUUAUGUUACGCCGUUCGGAUCUGCAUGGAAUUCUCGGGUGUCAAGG: 0.86
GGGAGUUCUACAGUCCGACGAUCCAAGUCCUGUGCUACACAUCGUAUGUACCGAAUCGGUGGAAAAAGGUUUUUUUGGAAAGUAUUAUGUUACGCCGUUCGGAUCUGCACUUCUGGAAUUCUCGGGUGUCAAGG: -1.68
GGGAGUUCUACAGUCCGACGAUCCAAGUCCUGUGCUACACAUCGUAUGUACCGAAUCGGGAAAGGGAAAAAGGGAGGGAAAGUAUUAUGUUACGCCGUUCGGAUCUGCACUUCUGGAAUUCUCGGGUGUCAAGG: 1.87
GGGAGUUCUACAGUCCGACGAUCUCAAGUCCUGUGCUACACAUCGUAUGUACCGAAUCGGAGGAAAAAAAGGUUUGGAAAGUAUUAUGUUACGCCGUUCGGAUCUGCACUUCCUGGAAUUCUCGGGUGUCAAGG: -1.58
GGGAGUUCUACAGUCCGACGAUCACCAUGCAGGUGGGCAUCUUUGGGAAGUGGGGCAAGGGGGGGAUAGGGAGGGGGGUAACACUUUGGGAACAGGUGGUCCCAGGUCGUUUUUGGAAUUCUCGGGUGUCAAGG: 2.46

Set 2 — method: EMSA with sequencing; molecule type: double-stranded DNA, one strand shown; medium: in vitro; tested at: 10 and 20 nM; relative to: negative control set to 0; reading: higher = stronger binding; measurement: normalised bound fraction
Target: Hepatocyte nuclear factor 3-alpha (Foxa1, Mus musculus, UniProt P35582, residues 1-468, full length assumed)
Chain of UniProt P35582 (whole entry, looked up): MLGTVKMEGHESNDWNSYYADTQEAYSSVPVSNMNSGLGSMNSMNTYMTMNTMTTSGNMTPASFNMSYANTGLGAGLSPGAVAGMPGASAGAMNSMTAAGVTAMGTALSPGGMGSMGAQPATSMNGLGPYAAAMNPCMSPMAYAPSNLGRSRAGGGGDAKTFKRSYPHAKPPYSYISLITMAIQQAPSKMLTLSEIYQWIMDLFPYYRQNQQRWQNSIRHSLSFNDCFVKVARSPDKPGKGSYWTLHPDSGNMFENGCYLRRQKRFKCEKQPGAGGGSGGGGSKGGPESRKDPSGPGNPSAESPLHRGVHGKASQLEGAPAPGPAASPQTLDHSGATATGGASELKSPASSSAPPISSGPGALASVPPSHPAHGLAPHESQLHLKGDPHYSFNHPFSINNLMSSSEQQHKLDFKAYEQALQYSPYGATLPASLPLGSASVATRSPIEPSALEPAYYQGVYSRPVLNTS
Notes: whole designed probe, mean of two concentrations, ends assumed
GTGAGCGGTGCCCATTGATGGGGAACCATTAGAGTCAAAGTTGTTAAGGGGAGCTAGTCATAGCTACCACGTGGCCAGGCATGTGGAACCAGACACCAGGCACAATGAATCATCATAAAGTAAATAGATGAATAATGCTGACAACCTAGTTCATAGTGACACACTACTTGAGATATATAGAATAACATTATTACCCAGTAAGTATGTGAACATTCCGATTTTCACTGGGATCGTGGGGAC: 0.471 ratio
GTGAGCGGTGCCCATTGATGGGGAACACTAAAGACGCTCTGCAATATTCATACCAAGAAGAATCCTTGGAAGAAAAACTAAGGAAACAATTCTAGCTTTCAAATCTAGAGTTGCTGCTAAGTAATCTTAAAGATTTACTCAAGAAGATCCCTGAAATAATTCCTAAAGAAAATGAAAGGTCTTTAGAAACCAGGAAAATAAGTGTTAACTTGAAGTCTGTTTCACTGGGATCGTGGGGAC: -0.0279 ratio
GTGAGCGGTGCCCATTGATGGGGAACATGTAGTAATGGATTGGAGTTGGAGATATCAGTATGAATTCATGCTTAGTGTGATATAGACAGAAATGTATTTATAGATAAGATTATATATATGTCATTTTACACATATATATTTCCTTGCTATGTCAGCTGAGAAGGCATAGAAACAACAACAACTCAGTAGCAGTGAGCACCCTAGTGCCCAGATCTTGGTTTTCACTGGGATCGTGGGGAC: 0.0348 ratio
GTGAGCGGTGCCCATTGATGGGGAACTTTATCACAGGACAATGAATATATACCTCAAAATAAAAGATGTAGAATACTGAAATTACATAATTTGGTTAAACAAAACAATACATGACTATGTAATCTCGGCTGAGCAGCACATACCTCCTAGTGCTTTTTTTTAAATGTCAAACAGTCATAATTTTTAATCTCCTTTCTTGAGGGTGTCAAAAAAATCTTTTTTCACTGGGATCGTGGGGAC: 0.0522 ratio
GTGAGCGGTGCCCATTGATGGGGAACATCTTCCCCCTCTTCCTTGCCCCACCAGCTCACCTTCCCGGGTTATTTGCACAAAGGAAAATAAATAAAGCCGGCATTCGTTAACCCTCTTCTGGCGCAAACTGCTGTTTGCTCTGGATGAATCATGGTCCTTTGGCGACGCCAGGCTCCGGGAGAGCAAAGCACCGTGTCAGGGCCATGATCCGGGCTCGCCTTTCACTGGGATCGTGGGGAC: 0.355 ratio

Set 3 — method: RNA Bind-n-Seq; molecule type: RNA; medium: in vitro; tested at: 365 nM; relative to: no-protein control; reading: higher = stronger binding; measurement: RBNS enrichment (R)
Target: RNA binding protein fox-1 homolog 2, RRM domain, GST-SBP tag (RBFOX2, Homo sapiens, UniProt O43251-10, residues 100-194)
Notes: natural RNA segment, single round, ends assumed
Residues (chain): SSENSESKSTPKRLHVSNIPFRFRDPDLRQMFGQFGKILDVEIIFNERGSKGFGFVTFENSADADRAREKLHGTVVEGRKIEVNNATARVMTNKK
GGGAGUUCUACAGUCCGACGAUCUCUGUCCUGGGUGGGAUGCACCGAGCUAGUCACGGGUGUCGGAUCAGAUCUUUUAAAAACACUUGUCUCAUGUAAUUGAGACCCGCCACCAUCGCAGAUGAGUGACAAGAUGGAAUUCUCGGGUGCCAA: 0.316
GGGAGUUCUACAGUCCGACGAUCUGGACCUUGUGGCCAGGUGCUCUUCCCGAGCCACAGGUGUUCUGUGAGCUUGCUUGUGUGUGUGUGCGCGUGUGCGUGUGUUGCUCCAAUAAAGUUUGUACACUUUCUGAUGGAAUUCUCGGGUGCCAA: 0.448
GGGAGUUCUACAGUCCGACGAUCACUUAAGACAGCAGAGCACCUUAUAAUAACAGUCCUUGGGUAUGAUUUAAAAUAAAAUUUAAAAUUCAAGUUUUUGGGGGGGUCUUUGUUGUUCUACUCAGUCAUCCAGCUGGAAUUCUCGGGUGCCAA: 0.64
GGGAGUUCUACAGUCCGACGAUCACUUCUGCCUAUGGCUUACAGUUUGACAUUUAAUUUAUUAGCGCUGCUCUGCACCCCUCCCUUGGGAGGGAGACUUCAUGUGGUUUAUUGCGAGUUUUUUGUUUACUUUUUGGAAUUCUCGGGUGCCAA: 0.455
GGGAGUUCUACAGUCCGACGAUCGAAUUAUGGAACAUUGUCUGUACCUUCUGACUUUAUGUAAGCAGUCCAUUCCAUUGCUUGUUUCUCAAAGCAGCGAGAUACCUGUCUGAGCUGCAGGAGGCAGGGGCAGCUGGAAUUCUCGGGUGCCAA: 0.441
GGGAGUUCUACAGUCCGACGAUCAUUUGAUUUUUACAAUUAUUCUCUUCUAACCAAUGAAGUGUUUGUCAGUAUGCCCCAAAGCUUGCUCUUUUGUGCUCCCUUUUGAAUAACUUUCUAUCCAGAAAAAGAGAUGGAAUUCUCGGGUGCCAA: 1.49
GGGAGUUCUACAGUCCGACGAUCGCUUGUGUGGUGGCUUCUUGUCCUUCUCUUUGACUUCUGUGGCAUGGUGCUAGUGCAUGUACCCUGUGGUAUUGCCCCUCUGUCCGUAGUGUGAACUGUCCUGUGAGCUUUGGAAUUCUCGGGUGCCAA: 6.94
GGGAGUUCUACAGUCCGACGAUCAAUUUGCCUUUACCUCACCAAAAAUGUCUAGUUUAAUCUUCCUGCCGUGCCCGCUGACUGUCUGGGCAGCCUUGCAGUGGGGGCUGAUGUGCUGUCUUAUUUUUGCUGUCUGGAAUUCUCGGGUGCCAA: 0.733

Set 4 — method: protein binding microarray; molecule type: double-stranded DNA, one strand shown; medium: in vitro; tested at: not given; relative to: not given; reading: higher = stronger binding; measurement: E-score
Target: Histone acetyltransferase KAT6A, winged helix 2, GST fusion (KAT6A, Homo sapiens, UniProt Q92794, residues 85-181)
Notes: 8-mer, flanks averaged, mean of 2 arrays, mostly near background
Target sequence (chain): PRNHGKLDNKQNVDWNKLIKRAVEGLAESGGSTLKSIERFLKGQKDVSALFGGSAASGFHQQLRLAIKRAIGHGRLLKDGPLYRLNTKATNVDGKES
CAGGCTCG: 0.082
CTCAGTTC: -0.203
CTAAACCA: 0.0558
AGGCGGAA: 0.164
ACCTCTCG: -0.126
CGTGCTGC: 0.111
AGTACTAC: -0.175
CATTGCTC: -0.00629
GTGTGCGA: 0.00907
TACGTTGA: -0.111
GCTTATAC: -0.0614
GAAGCAGA: 0.111
GGTCTCTA: -0.0838
ACAGGAGG: -0.14
CTCAACCC: -0.00327
ACGTCGAC: -0.0506
GTCGCTGA: 0.0697
ACCATGGT: -0.165
AACACGAC: 0.0759
ATCTCGTA: -0.0757
GCGGCAGA: 0.114
ATAATCTG: -0.136
ACGGCTGC: -0.0131
GAATTCAA: 0.0498

Set 5 — target: CCNB1, cyclin fold, Cln2 fusion (human); method: yeast growth competition, sequencing; medium: yeast; notes: weak parent motif; relative to: not given; reading: higher = stronger binding; measurement: normalised enrichment score
Starting sequence: WEE2 docking peptide (human); KELRQKLNFSYCE
KELRQKLAFSYCE [N8A]: 0.532
AELRQKLNFSYCE [K1A]: 0.142
KELRQKLNFSYCA [E13A]: 0.41
KELRQKLNFSYAE [C12A]: 0.231
KELRQKANFSYCE [L7A]: 0.0032
KELRQKLNFSACE [Y11A]: 0.208
KELRQKLNFAYCE [S10A]: 0.486

A few entries again (set 4):
CGTGCTGC: 0.111
GCTTATAC: -0.0614
ACCTCTCG: -0.126
ACGGCTGC: -0.0131
ACCATGGT: -0.165
GTCGCTGA: 0.0697
TACGTTGA: -0.111
CATTGCTC: -0.00629
CTAAACCA: 0.0558
